Published values gathered from unrelated publications.
Parts stem from different laboratories: compare values within a part only. Substitutions count along the parent as printed.
UniProt P11309, sequence (whole entry, looked up): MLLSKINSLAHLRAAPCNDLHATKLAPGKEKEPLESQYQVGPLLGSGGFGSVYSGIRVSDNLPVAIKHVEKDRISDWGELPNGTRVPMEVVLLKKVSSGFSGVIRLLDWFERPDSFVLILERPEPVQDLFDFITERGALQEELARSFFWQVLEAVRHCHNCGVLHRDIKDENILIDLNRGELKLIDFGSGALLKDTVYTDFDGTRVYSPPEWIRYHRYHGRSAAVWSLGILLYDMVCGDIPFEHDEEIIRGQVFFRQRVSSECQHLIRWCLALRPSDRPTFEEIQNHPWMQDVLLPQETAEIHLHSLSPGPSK
UniProt Q92918, sequence (whole entry, looked up): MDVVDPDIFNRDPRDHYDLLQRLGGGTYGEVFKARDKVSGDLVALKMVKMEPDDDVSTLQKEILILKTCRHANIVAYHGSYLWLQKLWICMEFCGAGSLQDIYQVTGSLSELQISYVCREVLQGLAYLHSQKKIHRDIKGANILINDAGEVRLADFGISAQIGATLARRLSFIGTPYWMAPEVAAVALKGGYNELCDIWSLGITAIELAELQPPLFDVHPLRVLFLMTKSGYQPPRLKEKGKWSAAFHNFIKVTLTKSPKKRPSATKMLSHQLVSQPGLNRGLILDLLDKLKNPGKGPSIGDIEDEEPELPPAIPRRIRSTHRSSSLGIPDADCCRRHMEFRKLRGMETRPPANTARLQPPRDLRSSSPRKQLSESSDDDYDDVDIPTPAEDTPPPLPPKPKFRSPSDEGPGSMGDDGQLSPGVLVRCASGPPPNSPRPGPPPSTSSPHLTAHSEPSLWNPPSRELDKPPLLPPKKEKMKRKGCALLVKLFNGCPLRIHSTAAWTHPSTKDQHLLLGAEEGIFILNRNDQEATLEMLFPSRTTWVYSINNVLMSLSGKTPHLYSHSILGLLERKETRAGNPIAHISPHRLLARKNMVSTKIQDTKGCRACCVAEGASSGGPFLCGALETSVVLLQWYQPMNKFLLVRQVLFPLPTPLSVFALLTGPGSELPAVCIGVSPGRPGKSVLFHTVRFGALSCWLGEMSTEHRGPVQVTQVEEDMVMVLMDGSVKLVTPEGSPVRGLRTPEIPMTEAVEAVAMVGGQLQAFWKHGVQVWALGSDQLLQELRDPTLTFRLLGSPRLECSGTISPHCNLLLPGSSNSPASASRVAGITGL
UniProt Q9UIK4, sequence (whole entry, looked up): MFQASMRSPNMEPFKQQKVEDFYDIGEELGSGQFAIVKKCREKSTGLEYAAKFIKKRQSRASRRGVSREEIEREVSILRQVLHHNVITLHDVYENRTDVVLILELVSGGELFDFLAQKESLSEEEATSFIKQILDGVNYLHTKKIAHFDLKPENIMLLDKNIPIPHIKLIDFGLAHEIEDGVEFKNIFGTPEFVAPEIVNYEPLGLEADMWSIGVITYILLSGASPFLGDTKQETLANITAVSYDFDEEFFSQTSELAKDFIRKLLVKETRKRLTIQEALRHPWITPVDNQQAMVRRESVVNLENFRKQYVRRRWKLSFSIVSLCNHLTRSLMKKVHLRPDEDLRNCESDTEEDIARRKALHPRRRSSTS
UniProt P35916, sequence (whole entry, looked up): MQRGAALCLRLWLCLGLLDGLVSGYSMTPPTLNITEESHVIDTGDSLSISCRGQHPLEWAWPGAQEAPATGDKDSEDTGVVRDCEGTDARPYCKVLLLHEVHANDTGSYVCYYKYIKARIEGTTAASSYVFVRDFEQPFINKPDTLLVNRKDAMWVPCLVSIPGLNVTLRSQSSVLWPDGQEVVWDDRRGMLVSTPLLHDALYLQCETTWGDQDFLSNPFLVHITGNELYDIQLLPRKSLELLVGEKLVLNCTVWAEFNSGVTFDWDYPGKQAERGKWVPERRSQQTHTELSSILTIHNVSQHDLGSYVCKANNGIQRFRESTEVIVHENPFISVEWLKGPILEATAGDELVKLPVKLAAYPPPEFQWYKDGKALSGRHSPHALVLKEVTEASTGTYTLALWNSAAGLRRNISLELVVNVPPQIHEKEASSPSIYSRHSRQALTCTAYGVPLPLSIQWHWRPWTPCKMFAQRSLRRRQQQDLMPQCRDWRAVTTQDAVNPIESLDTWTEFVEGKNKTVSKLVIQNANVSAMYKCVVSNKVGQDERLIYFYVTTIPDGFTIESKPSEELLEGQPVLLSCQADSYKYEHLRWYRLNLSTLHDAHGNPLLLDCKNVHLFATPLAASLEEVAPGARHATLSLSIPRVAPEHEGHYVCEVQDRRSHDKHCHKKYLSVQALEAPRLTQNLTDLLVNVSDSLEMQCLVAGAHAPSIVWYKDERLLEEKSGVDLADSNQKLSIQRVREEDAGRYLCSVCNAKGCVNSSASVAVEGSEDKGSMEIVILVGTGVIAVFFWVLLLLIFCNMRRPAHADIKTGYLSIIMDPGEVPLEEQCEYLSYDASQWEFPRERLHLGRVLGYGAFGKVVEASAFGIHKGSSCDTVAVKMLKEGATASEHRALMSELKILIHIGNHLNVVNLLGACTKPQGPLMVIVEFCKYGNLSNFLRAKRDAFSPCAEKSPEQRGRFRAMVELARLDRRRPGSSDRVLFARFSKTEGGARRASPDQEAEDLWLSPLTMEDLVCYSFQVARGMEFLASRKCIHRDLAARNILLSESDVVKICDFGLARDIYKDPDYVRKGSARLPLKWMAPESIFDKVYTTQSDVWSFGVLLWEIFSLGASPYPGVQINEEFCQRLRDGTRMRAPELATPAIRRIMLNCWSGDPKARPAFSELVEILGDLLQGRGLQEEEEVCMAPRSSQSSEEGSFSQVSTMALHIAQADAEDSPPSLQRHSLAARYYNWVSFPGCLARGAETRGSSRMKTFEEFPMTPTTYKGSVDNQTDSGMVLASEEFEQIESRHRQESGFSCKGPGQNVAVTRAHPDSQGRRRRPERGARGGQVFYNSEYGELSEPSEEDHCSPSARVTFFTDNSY
UniProt P50613, sequence (whole entry, looked up): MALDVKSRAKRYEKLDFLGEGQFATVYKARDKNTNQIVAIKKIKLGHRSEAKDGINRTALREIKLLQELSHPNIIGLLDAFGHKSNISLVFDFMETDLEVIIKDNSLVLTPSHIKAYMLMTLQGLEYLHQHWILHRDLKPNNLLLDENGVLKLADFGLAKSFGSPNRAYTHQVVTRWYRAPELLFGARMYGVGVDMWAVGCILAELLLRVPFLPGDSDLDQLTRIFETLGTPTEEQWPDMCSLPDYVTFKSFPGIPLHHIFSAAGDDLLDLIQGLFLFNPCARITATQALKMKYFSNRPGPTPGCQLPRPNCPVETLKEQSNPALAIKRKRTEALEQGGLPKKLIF
UniProt O94768, sequence (whole entry, looked up): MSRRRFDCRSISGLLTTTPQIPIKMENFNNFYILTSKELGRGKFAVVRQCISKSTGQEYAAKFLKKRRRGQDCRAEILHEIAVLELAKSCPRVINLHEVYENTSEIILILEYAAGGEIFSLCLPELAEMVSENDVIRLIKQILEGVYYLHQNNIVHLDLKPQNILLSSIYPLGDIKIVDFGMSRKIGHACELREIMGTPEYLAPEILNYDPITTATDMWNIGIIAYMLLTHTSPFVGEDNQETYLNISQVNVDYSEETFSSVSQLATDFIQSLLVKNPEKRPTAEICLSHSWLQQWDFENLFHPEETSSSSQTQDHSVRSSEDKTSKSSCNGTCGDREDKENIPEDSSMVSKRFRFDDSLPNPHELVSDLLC
UniProt Q16659, sequence (whole entry, looked up): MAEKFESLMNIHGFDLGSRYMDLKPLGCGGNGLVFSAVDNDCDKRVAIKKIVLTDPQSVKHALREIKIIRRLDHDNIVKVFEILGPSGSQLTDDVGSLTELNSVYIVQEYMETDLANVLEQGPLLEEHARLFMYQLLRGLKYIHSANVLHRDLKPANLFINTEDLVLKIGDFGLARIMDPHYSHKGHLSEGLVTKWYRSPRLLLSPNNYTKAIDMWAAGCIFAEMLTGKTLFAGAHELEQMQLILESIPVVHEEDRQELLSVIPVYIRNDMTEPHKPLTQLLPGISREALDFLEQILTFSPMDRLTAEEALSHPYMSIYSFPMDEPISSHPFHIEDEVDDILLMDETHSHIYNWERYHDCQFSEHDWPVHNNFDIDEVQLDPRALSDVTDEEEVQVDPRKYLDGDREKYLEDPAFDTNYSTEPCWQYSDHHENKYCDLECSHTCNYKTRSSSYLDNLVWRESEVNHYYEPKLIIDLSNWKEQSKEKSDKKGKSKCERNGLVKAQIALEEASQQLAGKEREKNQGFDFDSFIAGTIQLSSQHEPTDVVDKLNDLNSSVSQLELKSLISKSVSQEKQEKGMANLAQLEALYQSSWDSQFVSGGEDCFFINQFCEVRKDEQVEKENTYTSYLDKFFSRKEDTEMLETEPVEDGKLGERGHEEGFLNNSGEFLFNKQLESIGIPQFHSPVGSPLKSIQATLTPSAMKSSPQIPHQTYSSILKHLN
UniProt Q9UPE1, sequence (whole entry, looked up): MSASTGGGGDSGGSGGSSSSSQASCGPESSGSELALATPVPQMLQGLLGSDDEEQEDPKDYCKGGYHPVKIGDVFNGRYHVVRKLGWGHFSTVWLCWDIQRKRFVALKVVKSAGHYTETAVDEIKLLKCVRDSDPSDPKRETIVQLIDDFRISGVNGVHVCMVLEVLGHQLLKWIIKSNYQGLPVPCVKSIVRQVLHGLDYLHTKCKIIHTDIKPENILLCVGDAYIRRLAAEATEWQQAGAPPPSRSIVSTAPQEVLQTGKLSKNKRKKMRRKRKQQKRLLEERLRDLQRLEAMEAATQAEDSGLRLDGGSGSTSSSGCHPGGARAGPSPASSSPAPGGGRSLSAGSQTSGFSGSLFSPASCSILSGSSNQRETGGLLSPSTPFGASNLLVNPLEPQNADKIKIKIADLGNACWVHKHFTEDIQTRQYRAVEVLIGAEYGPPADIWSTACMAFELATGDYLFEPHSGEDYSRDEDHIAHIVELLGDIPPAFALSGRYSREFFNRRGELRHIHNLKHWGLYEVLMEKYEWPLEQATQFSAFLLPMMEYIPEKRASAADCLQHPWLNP

Series 1
Target: CCND3, cyclin fold, Cln2 fusion (human)
Method: yeast growth competition, sequencing
Sample: yeast
Setting: weak parent motif
Relative to: not given
Direction: higher = stronger binding
Parent: MASTL docking peptide (human); PMIAKNLMCELDE
Substitution | normalised enrichment score
L7H | -1.06
D12R | -0.0589
D12C | -0.0661
M8W | 0.191
E10Y | 0.158
M2H | 0.202
L7N | -0.223
I3E | 0.105

Series 2
Cell line: A-375
Tested at: 100 µM
Time: 36 h
SMILES | viability [%]
C/C(=C(\CCOP(=O)(O)O)SC(=O)c1ccccc1)N(C=O)Cc1cnc(C)nc1N | 92.6
CC1=C(/C=C/C(C)=C/C=C/C(C)=C/C=C/C=C(C)/C=C/C=C(C)/C=C/C2=C(C)C(=O)[C@@H](O)CC2(C)C)C(C)(C)C[C@H](O)C1=O | 106
CCOc1ccccc1OCCN[C@H](C)Cc1ccc(OC)c(S(N)(=O)=O)c1 | 99.2
Nc1cccc2c1CN(C1CCC(=O)NC1=O)C2=O (stereo not shown) | 105

Series 3
Observed: AlphaScreen signal
Method: AlphaScreen counter screen
Sample: His6 peptide without bromodomain
Tested at: 50 µM
Setting: assay interference check
SMILES | inhibition
Cc1cnc(NC(=O)Nc2cc(Br)c(C)cc2OC[C@@H]2CNCCO2)cn1 | 41.5%
COc1ccc(Nc2nc(N)c(C(=O)c3ccc(Cl)cc3)s2)cc1 | 47.9%
COc1ccccc1-c1cnc2[nH]c(=O)n(C3CCCC3)c2n1 | 12.6%

Series 4
SMILES: COc1ccc2cc(OCC3(C(=O)O)CN(C(=O)c4ccc(F)cc4)C3)ccc2c1
Method: competition with immobilised ligand
Tested at: 1 µM
target | test | remaining binding [%]
PIM1 (Homo sapiens, UniProt P11309) | cell-free assay | 96
STK17B (Homo sapiens, UniProt O94768) | cell-free assay | 100
TYRO3 (Homo sapiens, UniProt Q06418) | cell-free assay | 100
DAPK2 (Homo sapiens, UniProt Q9UIK4) | cell-free assay | 98
TEC (Homo sapiens, UniProt P42680) | binding | 100
BUB1 (Homo sapiens, UniProt O43683) | cell-free assay | 100
PRPF4B (Homo sapiens, UniProt Q13523) | cell-free assay | 100
MAPK6 (Homo sapiens, UniProt Q16659) | cell-free assay | 88
ALK (Homo sapiens, UniProt Q9UM73) | cell-free assay | 79
CDK7 (Homo sapiens, UniProt P50613) | cell-free assay | 100
SRPK3 (Homo sapiens, UniProt Q9UPE1) | cell-free assay | 100
PRKACB (Homo sapiens, UniProt P22694) | cell-free assay | 100
GRK2 (Homo sapiens, UniProt P25098) | cell-free assay | 72
MAP4K1 (Homo sapiens, UniProt Q92918) | cell-free assay | 95
LATS1 (Homo sapiens, UniProt O95835) | cell-free assay | 87
FLT4 (Homo sapiens, UniProt P35916) | cell-free assay | 75

Further values, each from its own experiment
Tested at: 10 µM
Structure (SMILES) | cell line | test | conditions | scale | endpoint | value
Cc1onc(-c2ccccc2Cl)c1C(=O)N[C@@H]1C(=O)N2[C@@H]1SC(C)(C)[C@@H]2C(=O)O | mouse MPNST tumor cells | high-content nuclear imaging, measured: cell number | 12 h, mean of 2 replicates | relative to: plate mean, higher = more cells | nuclei count | 1.19 z-score
CCOC(=O)C1=C[C@]2(CC)CCCN3CCc4c(n1c1ccccc41)[C@@H]32 | Huh-7 | – | 24 h | – | viability | 97.1%
CN1CCC[C@@H]1Cc1c[nH]c2ccc(CCS(=O)(=O)c3ccccc3)cc12 | mouse MPNST tumor cells | high-content nuclear imaging, measured: cell number | 12 h, mean of 2 replicates | relative to: plate mean, higher = more cells | nuclei count | 3.11 z-score

For quick reference, copied from above (series 4):
target | test | remaining binding [%]
CDK7 (Homo sapiens, UniProt P50613) | cell-free assay | 100
SRPK3 (Homo sapiens, UniProt Q9UPE1) | cell-free assay | 100
PRKACB (Homo sapiens, UniProt P22694) | cell-free assay | 100
GRK2 (Homo sapiens, UniProt P25098) | cell-free assay | 72
